Experimental data collected from several papers.
Each line is one published result; not all experiments were run side by side. ± marks the error that the study gave.
AKR1C1: Aldo-keto reductase family 1 member C1 (AKR1C1, Homo sapiens, UniProt Q04828)
UniProt Q04828, sequence (whole entry, looked up): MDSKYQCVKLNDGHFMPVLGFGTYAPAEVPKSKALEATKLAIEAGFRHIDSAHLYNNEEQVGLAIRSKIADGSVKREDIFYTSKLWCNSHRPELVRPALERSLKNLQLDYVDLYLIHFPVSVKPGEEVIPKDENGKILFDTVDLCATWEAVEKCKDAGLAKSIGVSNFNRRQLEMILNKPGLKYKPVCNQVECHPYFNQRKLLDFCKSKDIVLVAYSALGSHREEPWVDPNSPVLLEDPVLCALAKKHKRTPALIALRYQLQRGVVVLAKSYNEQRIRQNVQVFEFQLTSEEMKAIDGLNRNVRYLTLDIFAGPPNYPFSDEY
IDO1: Indoleamine 2,3-dioxygenase 1 (IDO1, Homo sapiens, UniProt P14902)
UniProt P14902, sequence (whole entry, looked up): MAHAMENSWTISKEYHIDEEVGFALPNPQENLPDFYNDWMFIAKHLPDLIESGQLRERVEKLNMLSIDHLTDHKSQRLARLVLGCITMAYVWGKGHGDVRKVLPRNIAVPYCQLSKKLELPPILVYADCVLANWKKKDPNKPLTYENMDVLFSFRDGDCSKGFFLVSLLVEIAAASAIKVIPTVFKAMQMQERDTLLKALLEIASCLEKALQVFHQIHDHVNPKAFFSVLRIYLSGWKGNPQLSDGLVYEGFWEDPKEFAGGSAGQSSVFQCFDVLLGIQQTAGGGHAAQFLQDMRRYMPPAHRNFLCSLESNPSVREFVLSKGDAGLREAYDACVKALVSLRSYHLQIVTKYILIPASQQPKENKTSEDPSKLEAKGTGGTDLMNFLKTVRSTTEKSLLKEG
PPO3: PPO3 (Agaricus bisporus, UniProt C7FF04)
UniProt C7FF04, sequence (whole entry, looked up): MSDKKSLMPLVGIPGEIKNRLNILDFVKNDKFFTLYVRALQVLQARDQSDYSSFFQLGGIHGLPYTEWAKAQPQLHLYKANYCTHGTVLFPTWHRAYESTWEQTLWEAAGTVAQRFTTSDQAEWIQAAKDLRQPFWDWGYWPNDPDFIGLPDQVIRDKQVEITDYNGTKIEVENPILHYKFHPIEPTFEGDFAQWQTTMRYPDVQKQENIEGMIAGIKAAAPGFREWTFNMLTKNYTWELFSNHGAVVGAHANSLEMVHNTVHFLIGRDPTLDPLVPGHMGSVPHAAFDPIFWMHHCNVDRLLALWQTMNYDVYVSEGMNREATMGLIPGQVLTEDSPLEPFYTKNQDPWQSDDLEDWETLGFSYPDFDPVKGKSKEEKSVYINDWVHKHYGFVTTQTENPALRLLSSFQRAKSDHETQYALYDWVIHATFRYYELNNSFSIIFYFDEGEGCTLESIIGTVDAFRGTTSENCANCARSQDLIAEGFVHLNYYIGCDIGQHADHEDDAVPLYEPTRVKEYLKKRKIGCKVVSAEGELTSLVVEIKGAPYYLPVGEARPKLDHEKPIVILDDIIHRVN
UniProt Q9HAZ1, sequence (whole entry, looked up): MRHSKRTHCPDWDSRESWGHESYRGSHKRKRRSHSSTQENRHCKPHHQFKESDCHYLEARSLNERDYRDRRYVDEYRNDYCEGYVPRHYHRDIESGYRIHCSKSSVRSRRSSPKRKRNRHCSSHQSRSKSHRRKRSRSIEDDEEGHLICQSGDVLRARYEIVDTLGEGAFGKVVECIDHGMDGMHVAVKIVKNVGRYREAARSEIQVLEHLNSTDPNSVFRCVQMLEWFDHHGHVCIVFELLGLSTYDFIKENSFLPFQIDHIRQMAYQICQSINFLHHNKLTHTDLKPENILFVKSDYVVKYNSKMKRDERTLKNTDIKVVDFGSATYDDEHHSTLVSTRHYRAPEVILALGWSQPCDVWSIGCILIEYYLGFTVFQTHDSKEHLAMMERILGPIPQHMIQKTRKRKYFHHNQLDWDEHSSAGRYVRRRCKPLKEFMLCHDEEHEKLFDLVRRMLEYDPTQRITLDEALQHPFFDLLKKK
UniProt Q8NER1, sequence (whole entry, looked up): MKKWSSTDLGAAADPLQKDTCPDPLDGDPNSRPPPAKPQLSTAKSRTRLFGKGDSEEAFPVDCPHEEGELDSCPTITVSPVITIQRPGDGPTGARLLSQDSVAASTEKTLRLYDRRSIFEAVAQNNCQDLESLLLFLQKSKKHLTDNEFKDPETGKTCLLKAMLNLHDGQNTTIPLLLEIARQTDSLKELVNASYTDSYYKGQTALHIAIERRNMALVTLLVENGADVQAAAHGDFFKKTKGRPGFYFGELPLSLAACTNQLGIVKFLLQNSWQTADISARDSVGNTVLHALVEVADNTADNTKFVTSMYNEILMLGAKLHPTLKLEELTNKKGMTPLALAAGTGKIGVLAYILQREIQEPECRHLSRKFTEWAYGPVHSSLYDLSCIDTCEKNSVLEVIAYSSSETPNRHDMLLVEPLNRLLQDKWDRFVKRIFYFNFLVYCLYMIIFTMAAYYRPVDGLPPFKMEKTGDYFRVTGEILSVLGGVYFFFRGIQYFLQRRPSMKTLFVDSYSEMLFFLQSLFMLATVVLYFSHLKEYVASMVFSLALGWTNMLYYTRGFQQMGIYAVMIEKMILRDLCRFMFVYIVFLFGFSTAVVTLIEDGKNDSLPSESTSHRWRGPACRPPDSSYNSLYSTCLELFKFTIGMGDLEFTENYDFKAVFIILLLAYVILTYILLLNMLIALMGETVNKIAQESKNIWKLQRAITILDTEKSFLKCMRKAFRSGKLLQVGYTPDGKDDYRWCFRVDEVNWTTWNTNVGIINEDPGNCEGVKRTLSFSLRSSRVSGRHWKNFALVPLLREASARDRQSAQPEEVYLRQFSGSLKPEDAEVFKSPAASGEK
UniProt P32390, sequence (whole entry, looked up): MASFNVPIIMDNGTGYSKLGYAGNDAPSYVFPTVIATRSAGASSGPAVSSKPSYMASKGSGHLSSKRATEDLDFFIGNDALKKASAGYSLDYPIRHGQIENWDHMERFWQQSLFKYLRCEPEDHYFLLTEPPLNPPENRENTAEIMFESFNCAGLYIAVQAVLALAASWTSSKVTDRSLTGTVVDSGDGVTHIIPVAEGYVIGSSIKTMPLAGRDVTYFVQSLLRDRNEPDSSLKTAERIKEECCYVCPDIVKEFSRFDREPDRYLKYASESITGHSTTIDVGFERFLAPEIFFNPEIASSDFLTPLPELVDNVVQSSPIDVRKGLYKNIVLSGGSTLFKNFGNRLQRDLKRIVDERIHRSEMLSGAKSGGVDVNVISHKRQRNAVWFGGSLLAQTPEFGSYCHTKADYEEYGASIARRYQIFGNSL
UniProt P11597, sequence (whole entry, looked up): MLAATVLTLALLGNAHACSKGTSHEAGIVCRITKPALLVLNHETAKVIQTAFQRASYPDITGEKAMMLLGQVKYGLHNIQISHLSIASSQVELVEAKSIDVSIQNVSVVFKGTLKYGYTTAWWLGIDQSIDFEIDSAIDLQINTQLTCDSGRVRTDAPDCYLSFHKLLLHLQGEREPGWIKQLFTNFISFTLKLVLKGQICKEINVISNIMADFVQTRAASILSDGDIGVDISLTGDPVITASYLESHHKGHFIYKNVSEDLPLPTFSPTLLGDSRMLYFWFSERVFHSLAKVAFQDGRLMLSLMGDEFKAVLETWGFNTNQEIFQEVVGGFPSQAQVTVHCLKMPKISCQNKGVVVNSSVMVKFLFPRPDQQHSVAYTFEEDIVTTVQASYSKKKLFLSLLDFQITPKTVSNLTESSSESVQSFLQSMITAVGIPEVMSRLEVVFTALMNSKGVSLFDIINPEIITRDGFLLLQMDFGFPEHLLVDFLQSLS
UniProt Q9HBA0, sequence (whole entry, looked up): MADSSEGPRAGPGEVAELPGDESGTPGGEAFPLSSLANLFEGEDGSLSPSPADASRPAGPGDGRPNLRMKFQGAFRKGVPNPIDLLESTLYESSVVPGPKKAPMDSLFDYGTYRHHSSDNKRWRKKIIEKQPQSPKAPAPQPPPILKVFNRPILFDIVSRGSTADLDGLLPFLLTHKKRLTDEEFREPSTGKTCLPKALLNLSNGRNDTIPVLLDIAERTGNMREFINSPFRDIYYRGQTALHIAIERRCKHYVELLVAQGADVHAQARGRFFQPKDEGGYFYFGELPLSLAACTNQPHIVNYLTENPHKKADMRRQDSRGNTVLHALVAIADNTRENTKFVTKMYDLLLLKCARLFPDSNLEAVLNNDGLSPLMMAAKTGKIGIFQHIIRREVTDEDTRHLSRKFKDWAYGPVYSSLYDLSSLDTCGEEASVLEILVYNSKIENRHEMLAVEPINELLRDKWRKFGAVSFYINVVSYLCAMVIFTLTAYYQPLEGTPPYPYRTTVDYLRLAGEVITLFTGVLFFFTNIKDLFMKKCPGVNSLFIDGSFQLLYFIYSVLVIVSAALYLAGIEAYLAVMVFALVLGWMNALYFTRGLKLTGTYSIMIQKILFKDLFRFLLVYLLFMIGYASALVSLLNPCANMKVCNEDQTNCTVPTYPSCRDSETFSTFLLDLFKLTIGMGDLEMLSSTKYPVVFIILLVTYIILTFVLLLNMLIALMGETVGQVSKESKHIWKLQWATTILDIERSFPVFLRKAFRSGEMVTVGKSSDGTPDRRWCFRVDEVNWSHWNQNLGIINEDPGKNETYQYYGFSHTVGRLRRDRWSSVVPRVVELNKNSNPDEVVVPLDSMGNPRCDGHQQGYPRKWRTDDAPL
UniProt P30656, sequence (whole entry, looked up): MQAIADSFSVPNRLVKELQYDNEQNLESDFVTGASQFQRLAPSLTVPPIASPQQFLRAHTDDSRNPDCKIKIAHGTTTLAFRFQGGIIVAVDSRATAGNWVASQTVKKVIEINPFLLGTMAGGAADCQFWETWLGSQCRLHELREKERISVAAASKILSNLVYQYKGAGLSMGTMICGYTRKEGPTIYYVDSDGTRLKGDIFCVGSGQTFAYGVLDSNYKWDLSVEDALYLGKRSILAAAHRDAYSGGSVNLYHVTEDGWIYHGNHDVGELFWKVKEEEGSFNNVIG

| SMILES | target | assay | test system | setting | inhibition |
| --- | --- | --- | --- | --- | --- |
| O=C1/C(=C/c2c(F)cccc2Cl)Oc2cc(O)ccc21 | ERO1-like protein alpha (Homo sapiens, UniProt Q96HE7, C104A/C131A/C166A) | enzyme activity, inhibitor, fluorescence |  | 10 µM | 38.7% |
| CCCC[C@@H]1NC(=O)[C@H]([C@@H](C)O)NC(=O)[C@H](CCCNC(=N)N)NC(=O)CNC(=O)CC[C@@H](C(=O)N[C@@H](C)C(=O)N[C@@H](CCCNC(=N)N)C(=O)N[C@@H](CCCCN)C(=O)N[C@@H](CO)C(=O)N[C@H](C(=O)NCC(=O)NCC(N)=O)[C@@H](C)O)NC(=O)[C@H](CCC(N)=O)NC1=O | SETD7 (Homo sapiens, UniProt Q8WTS6) | enzyme activity, inhibitor, MALDI-TOF MS |  | 50 µM, 10 min preincubation, 30 min, pH 8, 37 °C, enzyme 500 nM, together with: H3 1-21 peptide, SAM 30 µM | 100% |
| COc1cc(OC)c2c(=O)[nH]c(-c3ccc(C4CCCNC4)cc3)nc2c1 (stereo not shown) | Bromodomain-containing protein 4, BD1 and BD2 (BRD4, Homo sapiens, UniProt O60885) | TR-FRET |  | 10 µM | 65% |
| C[C@]12CCC[C@H]1[C@@H]1CCc3c(cc(I)c(O)c3I)[C@H]1CC2 | AKR1C1 | enzyme activity, inhibitor, absorbance |  | 10 µM, pH 9 | 17.5% |
| COCC12C(=O)NC3C4(C(OC)CC1O)C1CC5(O)C(OC)C(O)C(OC(C)=O)(C1C5OC(=O)c1ccccc1)C3(O)C(OC)C24 (stereo not shown) | MAPKAPK5 (Homo sapiens, UniProt Q8IW41) | enzyme activity |  | 25 µM, together with: RBER-CHKtide | no inhibition |
| C[C@]12CCC[C@H]1[C@@H]1CCc3c(cc(Cl)c(O)c3Cl)[C@H]1CC2 | AKR1C1 | enzyme activity, inhibitor, absorbance |  | 10 µM, pH 9 | 39.4% |
| OB(O)c1cnn(-c2cccc(Cl)c2)c1 | PRE2 (Saccharomyces cerevisiae S288c, UniProt P30656) | 20S proteasome activity |  | 100 µM, together with: Suc-LLVY-AMC | ≤ 20% |
| O=C1CSC(c2cccc(Br)c2)N1c1cc(Cl)ccc1O (stereo not shown) | act2/arp2 (Schizosaccharomyces pombe, UniProt P32390+Q9UUJ1) | actin polymerization, pyrenyl-actin |  | concentration not given | no inhibition |
| Oc1c(C(Nc2nc3ccccc3s2)c2cccc(OCc3ccccc3)c2)ccc2cccnc12 (stereo not shown) | Genome polyprotein, NS2B-NS3 protease (Dengue virus type 2, UniProt P14340) | enzyme activity, inhibitor, fluorogenic |  | 25 µM, 0.1% CHAPS, together with: Bz-Nle-Lys-Arg-Arg-AMC substrate | 96.4 ± 1.32% |
| COc1cc(C)c2c(=O)cc(C[C@@H](C)O)oc2c1[C@@H]1O[C@H](CO)[C@@H](O)[C@H](O)[C@H]1OC(=O)/C=C/c1ccc(O)cc1 | IDO1 | kynurenine formation |  | 100 µM | 49.32 ± 0.27% |
| CNC(=O)c1ccccc1Oc1nc(Nc2cc(OC)c(OC)c(OC)c2)ncc1Br | SRC (Homo sapiens, UniProt P12931) | enzyme activity, inhibitor |  | 1 µM | 30 to 50% |
| CCCC[C@H](C)/C=C(C)/C=C/C(=O)O | TRPV4 (Homo sapiens, UniProt Q9HBA0) | calcium influx, fluorescence calcium |  | 0.1 to 10 µM, together with: hypotonic solution | no effect |
| COc1cc(C)c2c(=O)cc(C[C@@H](C)O)oc2c1[C@@H]1O[C@H](CO)[C@@H](O)[C@H](O)[C@H]1O | IDO1 | kynurenine formation |  | 100 µM | 26.7 ± 0.98% |
| C[C@@]12CC[C@@H]3c4cc(Br)c(O)cc4CC[C@H]3[C@@H]1CCC2=O | AKR1C1 | enzyme activity, inhibitor, absorbance |  | 100 µM, pH 9 | 22.5% |
| C[C@@H]1O[C@@H](OCc2cc(O)c3c(c2)[C@](O)([C@@H]2O[C@H](CO)[C@@H](O)[C@H](O)[C@H]2O)c2cccc(O)c2C3=O)[C@H](O)[C@H](O)[C@H]1O | IDO1 | kynurenine formation |  | 100 µM | 63 ± 1.84% |
| COc1cc(F)c(C(C)C)cc1C1=C(CN2C(=O)O[C@H](c3cc(C(F)(F)F)cc(C(F)(F)F)c3)[C@@H]2C)CC(C)(C)CC1 | Cholesteryl ester transfer protein (Homo sapiens, UniProt P11597) | plasma enzyme activity, inhibitor | healthy male human, plasma | oral, 400 mg single dose, 24 h post-dose | 43% |

| SMILES | target | assay | test system | setting | inhibition |
| --- | --- | --- | --- | --- | --- |
| O=C(O)CN1C(=O)/C(=C/c2c[nH]nc2-c2ccc([N+](=O)[O-])cc2)SC1=S | SIRT1 (Homo sapiens, UniProt Q96EB6) | enzyme activity, inhibitor, fluorescence |  | 10 µM | < 30% |
| CCCC[C@H](NC(C)=O)C(=O)N1CCC[C@H]1C(=O)N[C@@H](CO)C(=O)N[C@@H](CO)C(=O)N[C@@H](C)C(=O)N[C@@H](CO)C(=O)N[C@@H](CCCNC(=N)N)C(=O)N[C@@H](CCC(N)=O)C(=O)N[C@@H](CC(C)C)C(=O)N[C@]1(C)CCCCCCC=CCCC[C@@](C)(C(=O)N[C@@H](CCC(N)=O)C(N)=O)NC(=O)[C@H](CCC(=O)O)NC(=O)[C@H](CCCCN)NC(=O)[C@H](CC(C)C)NC(=O)[C@H](CCC(N)=O)NC(=O)[C@H](CCCCN)NC(=O)[C@H](CCCNC(=N)N)NC1=O | UBA1 (Homo sapiens, UniProt P22314) | ubiquitin thioester transfer to UBE2D2, inhibitor |  | concentration not given, staple-scanning screen | inactive |
| C[C@@H](N)C1CCN(S(=O)(=O)c2cccc3cnccc23)CC1 | CLK4 (Homo sapiens, UniProt Q9HAZ1) | cell-free assay, competition with immobilised ligand |  | 10 µM | > 95% |
| C[C@H](NC(=O)CNC(=O)[C@@H]1CSSC[C@H](NC(=O)[C@H](C)NC(=O)CN)C(=O)N[C@@H](CCCNC(=N)N)C(=O)N[C@@H](CCCNC(=N)N)C(=O)N[C@@H](CCC(=O)O)C(=O)N[C@@H]([C@@H](C)O)C(=O)N[C@@H](C)C(=O)N[C@@H](Cc2c[nH]c3ccccc23)C(=O)N[C@@H](C)C(=O)N1)C(=O)O | Integrin alpha-5/beta-1 (Homo sapiens, UniProt P05556+P08648) | phage binding |  | concentration not given, together with: CRGDC-displaying phage | inhibited |
| CC(C)c1ccc2nc3ccc(C(=O)NCCN4CCN(c5ccccc5)CC4)cn3c(=O)c2c1 | TRPV1 (Homo sapiens, UniProt Q8NER1) | calcium influx, antagonist | HeLa transfected | 1 µM, together with: capsaicin 5 µM | inhibited |
| COc1cc2c(cc1Cl)[C@H]1CC[C@@]3(C)C(=O)CC[C@H]3[C@@H]1CC2 | AKR1C1 | enzyme activity, inhibitor, absorbance |  | 100 µM, pH 9 | 35.7% |
| N[C@H]1CCCc2c1[nH]c1ccc(Cl)cc21 | SLC6A3 (Homo sapiens, UniProt Q01959) | ligand displacement, radioligand |  | 10 µM | 54.6% |
| NCCC(=O)N[C@@H](Cc1c[nH]c2ccccc12)C(=O)N[C@@H](Cc1ccc(Cl)cc1)C(=O)N[C@@H](Cc1ccc(F)cc1)C(N)=O | Ephrin type-A receptor 4, ectodomain (Epha4, Mus musculus, UniProt Q03137) | ephrin-A5 binding, antagonist, ELISA |  | 500 µM, together with: ephrin-A5-AP | 40% |
| C[C@]12CC[C@@H]3c4ccc(O)c(I)c4CC[C@H]3[C@@H]1CCC2=O | AKR1C1 | enzyme activity, inhibitor, absorbance |  | 10 µM, pH 9 | 8.3% |
| COc1cc2ncc3c(c2cc1-c1cnn(C)c1)n(-c1ccc(C#N)cc1F)c(=O)n3C | FMS kinase (CSF1R) Y969C | enzyme activity, inhibitor |  | 1 µM | > 50% |
| C[C@]12CC[C@@H]3c4cc(Br)c(O)c(Br)c4CC[C@H]3[C@@H]1CCC2=O | AKR1C1 | enzyme activity, inhibitor, absorbance |  | 100 µM, pH 9 | 82.5% |
| Cc1ccc(C2=Nc3ccccc3SC(c3ccc(N(C)C)cc3)C2)cc1 (stereo not shown) | PPO3 | enzyme activity, inhibitor |  | 25 µg/mL | 25% |
| COc1cc(C(=O)NC2CCC(N3CCN(CC4CCC5(CCCC5)C4)CC3)CC2)c(F)cc1Nc1ncc2c(n1)N(C1CCCC1(F)F)CC(F)(F)C(=O)N2C (stereo not shown) | ERBB2 (Homo sapiens, UniProt P04626) | cell-free assay, TR-FRET |  | 10 µM | 6.41% |
| C[C@]12CC[C@@H]3c4cc(I)c(O)cc4CC[C@H]3[C@@H]1CCC2=O | AKR1C1 | enzyme activity, inhibitor, absorbance |  | 100 µM, pH 9 | 22.5% |
| COc1cc(C2CC(c3ccc(C)cc3)=Nc3ccccc3S2)ccc1OCc1ccccc1 (stereo not shown) | PPO3 | enzyme activity, inhibitor |  | 25 µg/mL | 28% |

Some of these lines once more:
| SMILES | target | assay | test system | setting | inhibition |
| --- | --- | --- | --- | --- | --- |
| COc1cc(OC)c2c(=O)[nH]c(-c3ccc(C4CCCNC4)cc3)nc2c1 (stereo not shown) | Bromodomain-containing protein 4, BD1 and BD2 (BRD4, Homo sapiens, UniProt O60885) | TR-FRET |  | 10 µM | 65% |
| C[C@]12CCC[C@H]1[C@@H]1CCc3c(cc(I)c(O)c3I)[C@H]1CC2 | AKR1C1 | enzyme activity, inhibitor, absorbance |  | 10 µM, pH 9 | 17.5% |
| COCC12C(=O)NC3C4(C(OC)CC1O)C1CC5(O)C(OC)C(O)C(OC(C)=O)(C1C5OC(=O)c1ccccc1)C3(O)C(OC)C24 (stereo not shown) | MAPKAPK5 (Homo sapiens, UniProt Q8IW41) | enzyme activity |  | 25 µM, together with: RBER-CHKtide | no inhibition |
| C[C@]12CCC[C@H]1[C@@H]1CCc3c(cc(Cl)c(O)c3Cl)[C@H]1CC2 | AKR1C1 | enzyme activity, inhibitor, absorbance |  | 10 µM, pH 9 | 39.4% |
| OB(O)c1cnn(-c2cccc(Cl)c2)c1 | PRE2 (Saccharomyces cerevisiae S288c, UniProt P30656) | 20S proteasome activity |  | 100 µM, together with: Suc-LLVY-AMC | ≤ 20% |
